Published values from different studies.
Each numbered part is a random draw from the data of one study; scales do not carry over between parts.

Sample 1 — method: RNA Bind-n-Seq; form: RNA; sample: in vitro; concentration: 365 nM; reference: no-protein control; reading: higher = stronger binding; endpoint: RBNS enrichment (R)
Target: RNA binding protein fox-1 homolog 2, RRM domain, GST-SBP tag (RBFOX2, Homo sapiens, UniProt O43251-10, residues 100-194)
Notes: natural RNA segment, single round, ends assumed
Construct (chain): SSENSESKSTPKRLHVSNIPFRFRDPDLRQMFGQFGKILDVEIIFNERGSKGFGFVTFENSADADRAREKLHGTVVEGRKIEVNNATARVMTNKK
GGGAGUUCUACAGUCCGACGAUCAGGGAAUUAGGCAGAACAGAUUUCUAGGUUGGGUAGGCCACUGCAUUCUCUUUUGUUUGCAAAUUGGUCAACAAAAUUUGCAAAGUGAUUUCAGGAGAGAGCAGCUUUGAUGGAAUUCUCGGGUGCCAA: 0.54
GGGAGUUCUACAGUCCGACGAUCGACCCCCAGCCAGUAGACAUUGGCUAAGAACACAGAAUCUUCUGACCAAACACGCUUUCAGCAGCUGCCUGCUCUGGACUUUGAAAGAGGUCAGGUCUUGCCCUAAGCUCUGGAAUUCUCGGGUGCCAA: 0.323
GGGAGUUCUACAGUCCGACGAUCAGAAUUAGUGAUAAUAAAAAGCAGAGUGAUUUUGGUCAAUUUUAUUAUUAAUUCUUAAAUUCCCUGCAGAGAAUGCCCCCUUUAUUGCUGCACCAGGGUUGGCAUUGCUCUGGAAUUCUCGGGUGCCAA: 1.56
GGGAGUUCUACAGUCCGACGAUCUUUAUUGCUUCUUACUGAUACUGACUUAGAAAGCUUUCUGGGUUUUGUAUUUGUUUUAAGAAACAUUGGUUCCUAUGUAUUUUAGCAUUUUUGGUGAUUUCAAUUGACUUUGGAAUUCUCGGGUGCCAA: 0.313
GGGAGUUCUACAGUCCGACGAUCAGUCUGGGGCACAAGCUGAGCCGCUGACUAGCAAUGCCUACAGCCUUUCCCAAUGCCCUUGCCUGCCCUGGAGCUUCUAGGGCCACCUCUAGCAUCUGGAGACCGAAUAUUGGAAUUCUCGGGUGCCAA: 0.575
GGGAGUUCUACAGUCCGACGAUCUGGGAAGGACCCAGUGGGAGAUAAUUGAAAUAUGGGGGCAGUUUCCGCCAUACUGUUCUGGUGAUAGUGAAUAGAUCUCAUGAGAGCUGAUGAUUUUAUAAGAGGUUUCCUGGAAUUCUCGGGUGCCAA: 0.909

Sample 2 — method: universal PBM; form: double-stranded DNA, one strand shown; sample: in vitro; concentration: 600 nM; reading: higher = stronger binding; endpoint: E-score
Target: Sal-like protein 4, full length isoform A (SALL4, Homo sapiens, UniProt Q9UJQ4, residues 1-1053)
Sequence of UniProt Q9UJQ4 (whole entry, looked up): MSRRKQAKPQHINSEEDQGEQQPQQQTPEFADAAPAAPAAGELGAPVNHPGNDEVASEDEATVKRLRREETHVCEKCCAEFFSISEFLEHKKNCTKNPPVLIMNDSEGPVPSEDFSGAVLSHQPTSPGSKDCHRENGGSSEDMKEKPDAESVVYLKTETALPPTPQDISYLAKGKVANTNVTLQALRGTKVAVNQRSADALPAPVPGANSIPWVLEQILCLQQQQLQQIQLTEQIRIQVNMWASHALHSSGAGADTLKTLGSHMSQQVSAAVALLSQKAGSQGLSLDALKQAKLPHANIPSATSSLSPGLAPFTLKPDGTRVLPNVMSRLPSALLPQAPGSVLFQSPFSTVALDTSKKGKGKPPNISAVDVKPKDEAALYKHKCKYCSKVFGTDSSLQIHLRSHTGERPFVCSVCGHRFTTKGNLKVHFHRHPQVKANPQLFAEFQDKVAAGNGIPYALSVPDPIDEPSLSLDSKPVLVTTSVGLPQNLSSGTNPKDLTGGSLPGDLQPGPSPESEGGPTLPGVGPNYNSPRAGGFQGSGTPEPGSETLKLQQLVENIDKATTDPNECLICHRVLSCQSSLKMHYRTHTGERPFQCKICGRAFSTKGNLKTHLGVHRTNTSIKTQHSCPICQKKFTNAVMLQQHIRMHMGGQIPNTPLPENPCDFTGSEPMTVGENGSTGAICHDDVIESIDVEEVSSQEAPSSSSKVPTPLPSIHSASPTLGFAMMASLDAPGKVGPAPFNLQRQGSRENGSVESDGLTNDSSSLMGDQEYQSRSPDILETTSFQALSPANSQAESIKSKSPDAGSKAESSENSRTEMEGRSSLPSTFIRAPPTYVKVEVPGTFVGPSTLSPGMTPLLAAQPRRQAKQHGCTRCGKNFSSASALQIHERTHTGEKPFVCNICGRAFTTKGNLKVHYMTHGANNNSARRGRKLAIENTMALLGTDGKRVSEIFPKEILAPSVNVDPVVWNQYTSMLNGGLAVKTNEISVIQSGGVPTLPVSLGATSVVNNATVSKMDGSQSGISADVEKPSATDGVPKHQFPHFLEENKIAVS
Notes: 8-mer, flanks averaged, mean of replicates
GGTTGCGA: -0.0981
CCGAGTCA: -0.0814
TGGCCGAA: -0.105
CCAAGTAA: 0.124
ACCTGTGC: -0.0183

Sample 3 — method: RNAcompete; form: RNA; sample: in vitro; concentration: 20 nM; notes: 7-mer, probes averaged, single round; reference: mean of 7-mers; reading: higher = stronger binding; endpoint: 7-mer Z-score
Target: PABPC1L2, full length, GST fusion (mouse, UniProt A0ABA7IW68)
Construct (chain): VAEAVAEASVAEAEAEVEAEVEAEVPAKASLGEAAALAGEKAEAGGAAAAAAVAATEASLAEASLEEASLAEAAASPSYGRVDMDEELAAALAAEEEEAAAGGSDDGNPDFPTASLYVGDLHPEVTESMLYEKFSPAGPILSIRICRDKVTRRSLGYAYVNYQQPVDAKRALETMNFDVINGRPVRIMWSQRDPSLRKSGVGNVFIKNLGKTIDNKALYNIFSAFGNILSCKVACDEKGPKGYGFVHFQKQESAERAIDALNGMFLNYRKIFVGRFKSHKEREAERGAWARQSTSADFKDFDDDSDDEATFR
CAAGUCU: -0.229
CGUAUAA: 0.309
CAUAGUC: -0.249
AGUCGGA: 0.0859
AGAAUUC: -0.206
UCAUUCU: -0.436

Further values, each from its own experiment
PhoQ, residues 284 288 289 292 302 303 GNNTDL — fold induction (PhoP, residues 12 14 15 18 19 LWHCS (Escherichia coli, UniProt P23836); Sort-seq, measured: YFP reporter; E. coli; PhoQ-PhoP variant library, added: 10 µM Mg2+; reference: high Mg2+ state, higher = stronger signaling): 1.67

Some of these lines once more (sample 2):
CCAAGTAA: 0.124
